Assay results from different studies.
Each line is one published result; not all experiments were run side by side. Values joined by “and” are separate records of one study, mostly repeats; a detail may differ. ± marks the error that the study gave.
TOP2A: DNA topoisomerase 2-alpha (TOP2A, Homo sapiens, UniProt P11388)
Pteridine reductase 1: Pteridine reductase 1 (Leishmania major, UniProt Q01782)
BEST2: Bestrophin-2a (BEST2, Homo sapiens, UniProt Q8NFU1)
T1: G-quadruplex RNA, intermolecular parallel G4 (Homo sapiens); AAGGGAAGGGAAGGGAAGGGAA
T2: DNA junction; chain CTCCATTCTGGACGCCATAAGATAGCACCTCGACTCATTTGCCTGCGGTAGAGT; chain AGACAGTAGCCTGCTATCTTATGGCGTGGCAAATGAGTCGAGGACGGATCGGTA; chain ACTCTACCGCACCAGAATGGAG; chain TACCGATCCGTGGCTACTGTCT

CN1CCN(c2cc(-c3ccncc3)c(-c3ccc4ccccc4c3)nn2)CC1 gave an activation of -1.6% (CXCR1 (Homo sapiens, UniProt P25024); agonist, FLIPR; 12.5 µM).
C[C@@H]1C[C@H](Nc2ccccc2)c2cc(F)ccc2N1C(=O)c1ccncn1 has a pIC50 Z-score of -0.62 (Ecdysone receptor (Aedes albopictus, UniProt Q9U3Y4); ligand binding, inhibitor; intact cells; together with: [3H]ponasterone A; direction not given).
For O=C(O)c1ccc(Nc2ncc3c(n2)-c2ccc(Cl)cc2C(c2c(F)cccc2F)=NC3)cc1, the remaining activity was 101% (human TSSK2(h); kinase activity; 1 µM).
For CC(C)(Oc1ccc(CCNC(=O)c2ccc(Cl)cc2)cc1)C(=O)O, the specificity ratio was 172 (PPARG (Homo sapiens, UniProt P37231); reporter gene, agonist, β-lactamase reporter; HEK293-H cells; nominal concentration; baseline: cytotoxicity IC10 over EC10).
The Hill slope of O=c1cc(-c2ccc(OS(=O)(=O)[O-])cc2)oc2cc(OS(=O)(=O)[O-])cc(OCc3cccc(COc4cc(OS(=O)(=O)[O-])cc5oc(-c6ccc(OS(=O)(=O)[O-])cc6)cc(=O)c45)n3)c12.[Na+].[Na+].[Na+].[Na+] is reported as 1.7 (Neutrophil elastase (ELANE, Homo sapiens, UniProt P08246); enzyme activity, inhibitor; together with: chromogenic substrate).
For Cc1nc(CSc2nc(SCc3ccc(C(F)(F)F)cc3)nc(=O)[nH]2)cs1, the decatenated DNA was 100% (TOP2A; decatenation; 7.8 µM, replicate 1).
Under “normalized urate uptake”, CCc1oc2ccccc2c1C(=O)c1cc(Br)c(O)c(Br)c1 is recorded as 0.851 and 0.814 and 0.926 (SLC22A12 (Homo sapiens, UniProt Q96S37); inhibitor; HEK-293T; 0.001 µM, 10 min, 37 °C, together with: [14C]urate 10 µM).
With COc1ccc(F)cc1C(=O)NCc1ccc(-c2nn([C@@H](C)C(F)(F)F)c(N)c2C(N)=O)cc1 the remaining activity was 93.8 ± 2.1% (FGFR1 (Homo sapiens, UniProt P11362); kinase activity, inhibitor, HotSpot radiometric; 1000 nM, together with: ATP at Km).
For O=c1nc(SCc2cc(F)cc(C(F)(F)F)c2)nc(SCc2ccc3nc(Cl)ccc3c2)[nH]1, “ATP hydrolysis rate” read 0.425 µM/min and 0.581 µM/min (TOP2A; ATPase activity; 31.25 µM, together with: ATP 0.075 mM).
For CCOC(=O)C1CCN(C(=O)c2ccc(N(CC)Cc3cnc4nc(N)nc(N)c4n3)cc2)CC1, the partition index was 0.95 (Pteridine reductase 1; hDHFR weight 10; baseline: LmPTR1, LmDHFR over hDHFR, 1.0 selective, 0.0 non-selective).
The current density of Nc1ccc(C(=O)O)cc1 is reported as 3.44 pA/pF and 5.65 pA/pF and 8.73 pA/pF and 6.77 pA/pF and 15.6 pA/pF and 5.14 pA/pF (BEST1, with wild-type BEST1 (Homo sapiens, UniProt O76090, Q293K); ion current, whole-cell patch clamp; HEK293 co-expressing mutant and wild-type; concentration not given, voltage 40 mV).
The decatenated DNA of O=c1nc(SCc2cc(F)cc(C(F)(F)F)c2)nc(SCc2nc3ccccc3[nH]2)[nH]1 is reported as 0% (TOP2A; decatenation; 125 µM, replicate 1).
O=C(O)C1=CCNCC1 has a current density of -69 pA/pF and -92.2 pA/pF and -98.1 pA/pF and -179 pA/pF and -76.1 pA/pF (BEST2; whole-cell patch clamp; HEK293 transiently expressing channel; concentration not given, membrane potential -40 mV).
Nc1ncnc2c1ncn2[C@@H]1O[C@H](CO[P@](=O)(O)O[P@](=O)(O)O[P@@](=O)(O)S)[C@@H](O)[C@H]1O has a ΔG of -5.43 kcal/mol (GUK1 (Homo sapiens, UniProt Q16774, S13A); binding, ITC).
With O=C(NC1CCC1)c1ccc2nc(-c3cccc(NS(=O)(=O)NCCN4CCCCC4)c3)cn2c1 the remaining activity was 100% (LIM domain kinase 2 (LIMK2, Homo sapiens, UniProt P53671); enzyme activity; 10 µM).
The protein level of Cc1c(COc2ccc(CN3CCCCC3C(=O)O)cc2Br)cccc1-c1ccccc1 (centres unmarked) is reported as 96% and 98% and 76% (Cd274 (Mus musculus, UniProt Q9EP73); western blot; mouse B16-F10 tumour, tumour; intravenous, dose not given; baseline: control).
The decatenated DNA of CC(C)c1ccc(CSc2nc(SCc3ccc4sccc4c3)[nH]c(=O)n2)cc1 is reported as 4.52% (TOP2A; decatenation; 15.6 µM, replicate 1).
COC(=O)CNC(=O)C(=O)OC: binding “decreased” (KDM5A PHD3 domain, human; histone H3 binding, GST pull-down; MDA-MB-231; concentration not given, 12 h).
O=C(COP(=O)(O)O)[C@@H](O)[C@H](O)[C@H](O)COP(=O)(O)O — result for “thermal stability ratio”: 0.425 (Aminopeptidase B (Homo sapiens, UniProt Q9H4A4); thermal proteome profiling, refers to: RNPEP; HepG2 cell lysate; concentration not given, 57 over 37 °C, mean; baseline: compound over control).
With O=c1nc(SCc2cc(F)cc(C(F)(F)F)c2)nc(SCc2ccc3ncsc3c2)[nH]1 the decatenated DNA was 0% (TOP2A; decatenation; 125 µM, replicate 1).
The normalized current of Nc1ncnc2c1ncn2[C@@H]1O[C@H](COP(=O)(O)OP(=O)(O)OP(=O)(O)O)[C@@H](O)[C@H]1O is reported as 0.933 and 0.916 and 0.921 (P2X purinoceptor 7 (P2rx7, Rattus norvegicus, UniProt Q64663, I214A); ion current, agonist, two-electrode voltage clamp; Xenopus laevis oocytes; 300 µM; baseline: highest concentration response).
CN(C)c1ccc(Nc2c3ccc(NC(=O)CCN4CCCC4)cc3nc3cc(NC(=O)CCN4CCCC4)ccc23)cc1: binding “binds” (T1, G-quadruplex RNA, intermolecular parallel G4 (Homo sapiens); CD melting; Tm increased).
The activation of COc1cccc2c(Nc3ccc4[nH]c(C(=O)N/N=C/c5ccc(SC)cc5)cc4c3)cc(C)nc12 is reported as 0.75 fold (Bile acid receptor (NR1H4, Homo sapiens, UniProt Q96RI1); reporter gene, Gal4 hybrid reporter; 3 µM; baseline: vehicle).
O=C(O)[C@@H]1CCCN1c1ncnc2[nH]cnc12 (racemic) has a fold enrichment of 0.997 (Histone-lysine N-methyltransferase SETDB1, triple tudor domain (SETDB1, Homo sapiens, UniProt Q15047); binding, affinity selection mass spectrometry; baseline: other proteins in batch).
For c1coc(-c2n[nH]cc2-c2ccnc3ccccc23)c1, “log2 fold change” read -0.23 (Casein kinase I HRR25 (Candida albicans, UniProt Q59S64); kinase binding, MIB/MS competition; Candida albicans lysate; 1 µM; baseline: DMSO, negative = stronger binding).
The current density of O=C(O)c1ccc(O)cc1 is reported as 161 pA/pF and 121 pA/pF and 142 pA/pF and 120 pA/pF and 79.8 pA/pF and 68.5 pA/pF and 95.5 pA/pF (BEST2; whole-cell patch clamp; HEK293 transiently expressing channel; concentration not given, membrane potential 60 mV).
COCC(=O)N1CCC[C@H](C(=O)NCc2nc(-c3ccccc3)cs2)C1 has a maximum inhibition of 30% (uncharacterized protein (Plasmodium falciparum, UniProt A0A5K1K7U1+Q8I261+Q8IJT1); enzyme activity, inhibitor; without WLW-vs, together with: Suc-LLVY-AMC).
CCCCC/C=C\C/C=C\C/C=C\C/C=C\CCCC(=O)O has a Km of about 3 µM (human COX-2-PGIS fusion enzyme; conversion to PGI2, substrate; Sf9 membrane fraction).
The partition index of COc1cc(Oc2ccc(CNCc3cnc4nc(N)nc(N)c4n3)cc2)cc(OC)c1OC is reported as 0.98 (Pteridine reductase 1; hDHFR weight 10; baseline: LmPTR1, LmDHFR over hDHFR, 1.0 selective, 0.0 non-selective).
Cc1cc(Nc2cc(CN3CCOCC3)c3nc(C)c(Cc4ccc(Cl)cc4F)n3n2)n[nH]1 has a Hill slope of -1.06 (PKN1 (Homo sapiens, UniProt Q16512); inhibitor).
NCCS(=O)(=O)O — result for “normalised MST signal”: 0.0276 (SLC6A6 (Homo sapiens, UniProt P31641, Y138A); binding, microscale thermophoresis; 30.5 nM, room temperature, together with: 50 nM labelled protein; higher = more binding).
With CC(=O)N[C@H](C(=O)N1C[C@H](O)C[C@H]1C(=O)NCc1ccc(-c2scnc2C)cc1)C(C)(C)SCCCCCCNC(=O)C[C@@H]1N=C(c2ccc(Cl)cc2)c2c(sc(C)c2C)-n2c(C)nnc21 the −TΔS was 8.7 ± 0.5 kcal/mol (Bromodomain-containing protein 4, BD1 (BRD4, Homo sapiens, UniProt O60885); binding, ITC; 25 °C, compound in cell, protein in syringe).
C=CC(=O)N1CCC(COCC(=O)N2CCN(c3nc(-c4cnc(N)nc4C(F)F)nc(N4CCOC[C@@H]4C)n3)CC2)CC1 gave a remaining binding of 100% (PI4KB (Homo sapiens, UniProt Q9UBF8); KINOMEscan; 1 µM).
For c1ccc(C(NCc2cccnc2)(c2ccccc2)c2ccccc2)cc1, the Hill coefficient was 0.71 (KCNQ1 (Homo sapiens, UniProt P51787); ion current, inhibitor, whole-cell patch clamp; tsA201; current at end of depolarization, leak-subtracted).
CCOC(=O)C1=C(CN2CCc3ccccc32)NC(=O)NC1c1ccccc1OC(F)F (centres unmarked) gave an SPR response of 0.545 RU (AASS, SDH domain (Homo sapiens, UniProt Q9UDR5); binding, surface plasmon resonance; 0.5556 µM).
For Nc1ncnc2c1ncn2[C@@H]1O[C@H](COP(=O)(O)CP(=O)(O)OP(=O)(O)O)[C@@H](O)[C@H]1O, the specific binding was 3700 CCPM and 9390 CCPM and 3070 CCPM (P2X purinoceptor 1 (P2RX1, Homo sapiens, UniProt P51575, S286A); saturation binding; HEK293; 52 nM).
CC[C@@H](C)[C@@H](NC(=O)[C@@H](Cc1ccc(O)cc1)NC(=O)[C@H]1CCCN1C(=O)[C@@H](CCCNC(=N)N)NC(=O)[C@H](N)Cc1c[nH]cn1)C(=O)N[C@H](C)C(=O)N[C@H](Cc1c[nH]cn1)C(=O)N[C@H](CCCNC(=N)N)C(=O)N[C@@H](C(=O)N[C@H](Cc1ccc(O)cc1)C(=O)N[C@H](CO)C(=O)N[C@H](Cc1ccccc1)C(N)=O)C(C)C: “surface TFRC expression” 0.938 (Transferrin receptor protein 1 (Tfrc, Mus musculus, UniProt Q62351); flow cytometry; DC2.4; 24 h, pH 6, replicate 3, unit not given; baseline: 0 h).
COc1ccc(C(=O)/C=C/c2cccc(-c3cccc(-c4ccc(CNC[C@@H]5CCC(=O)N5)c(OC)n4)c3C)c2)cc1 has a degradation of under 5% (CD274 (Homo sapiens, UniProt Q9NZQ7); degrader, western blot; HL-60; 1 µM).
CC[n+]1c(-c2ccccc2)c2cc(N)ccc2c2ccc(N)cc21: binding “binds” (T2, DNA junction; fluorescence enhancement; 20 °C, Mg2+ 12.5 mM, ethidium displacement).
With Cc1ccc(NC2=CC(=O)N(C3CCC(=O)NC3=O)C2=O)cc1C(C)(C)NCCc1ccc(C(F)(F)F)c(Cl)c1 (centres unmarked) the Dmax was 84% (Cereblon/Ikaros (Homo sapiens, UniProt Q13422+Q96SW2); protein degradation, degrader, HiBiT luminescence; Jurkat).
Under “log2 fold change”, N#Cc1ccn2c(-c3ccncc3)c(-c3ccc(F)cc3)nc2c1 is recorded as 0.0668 (Mitogen-activated protein kinase MKC1 (MKC1, Candida albicans, UniProt P43068); kinase binding, competitor, MIB/MS competition, refers to: MKC1; Candida albicans cell lysate; 100 nM; baseline: DMSO).

A few entries again:
The current density of Nc1ccc(C(=O)O)cc1 is reported as 3.44 pA/pF and 5.65 pA/pF and 8.73 pA/pF and 6.77 pA/pF and 15.6 pA/pF and 5.14 pA/pF (BEST1, with wild-type BEST1 (Homo sapiens, UniProt O76090, Q293K); ion current, whole-cell patch clamp; HEK293 co-expressing mutant and wild-type; concentration not given, voltage 40 mV).
CN1CCN(c2cc(-c3ccncc3)c(-c3ccc4ccccc4c3)nn2)CC1 gave an activation of -1.6% (CXCR1 (Homo sapiens, UniProt P25024); agonist, FLIPR; 12.5 µM).
CCCCC/C=C\C/C=C\C/C=C\C/C=C\CCCC(=O)O has a Km of about 3 µM (human COX-2-PGIS fusion enzyme; conversion to PGI2, substrate; Sf9 membrane fraction).
CC[C@@H](C)[C@@H](NC(=O)[C@@H](Cc1ccc(O)cc1)NC(=O)[C@H]1CCCN1C(=O)[C@@H](CCCNC(=N)N)NC(=O)[C@H](N)Cc1c[nH]cn1)C(=O)N[C@H](C)C(=O)N[C@H](Cc1c[nH]cn1)C(=O)N[C@H](CCCNC(=N)N)C(=O)N[C@@H](C(=O)N[C@H](Cc1ccc(O)cc1)C(=O)N[C@H](CO)C(=O)N[C@H](Cc1ccccc1)C(N)=O)C(C)C: “surface TFRC expression” 0.938 (Transferrin receptor protein 1 (Tfrc, Mus musculus, UniProt Q62351); flow cytometry; DC2.4; 24 h, pH 6, replicate 3, unit not given; baseline: 0 h).
For CC(C)(Oc1ccc(CCNC(=O)c2ccc(Cl)cc2)cc1)C(=O)O, the specificity ratio was 172 (PPARG (Homo sapiens, UniProt P37231); reporter gene, agonist, β-lactamase reporter; HEK293-H cells; nominal concentration; baseline: cytotoxicity IC10 over EC10).
O=C(O)C1=CCNCC1 has a current density of -69 pA/pF and -92.2 pA/pF and -98.1 pA/pF and -179 pA/pF and -76.1 pA/pF (BEST2; whole-cell patch clamp; HEK293 transiently expressing channel; concentration not given, membrane potential -40 mV).
